# Published values from different studies.
# Each line is one published result; not all experiments were run side by side.
# Cell line: SR
SMILES,assay,conditions,scale,quantity,value
Cc1n[nH]c2nc(-c3ccc(Cl)cc3)c3c(NC(=O)c4ccccc4)nnc-3n12,SRB,"10 µM, NCI60 single-dose screen",relative to: untreated,cell growth,87%
CCCCN1CCN(c2ccc3[nH]c(-c4ccc5[nH]c(-c6ccc(OCC)c(OCC)c6)nc5c4)nc3c2)CC1,SRB,"10 µM, 48 h",,growth percent,14.3%
CSc1nc(-c2ccc(Cl)cc2)c2c(NC(=O)c3ccccc3)nnc-2[nH]1,SRB,"10 µM, NCI60 single-dose screen",relative to: untreated,cell growth,83.2%
COc1ccc(OC)c(-c2nc3ccc(-c4nc5ccc(N6CCN(C)CC6)cc5[nH]4)cc3[nH]2)c1,SRB,"10 µM, 48 h",,growth percent,70.5%
S=C([S][Au-][P+](CCCCCC[P+]([Au-][S]C(=S)n1cccn1)(c1ccccc1)c1ccccc1)(c1ccccc1)c1ccccc1)n1cccn1,cell growth,,,GI50,186 nM
CCCCN1CCN(c2ccc3[nH]c(-c4ccc5[nH]c(-c6ccc(OCC)cc6)nc5c4)nc3c2)CC1,SRB,"10 µM, 48 h",,growth percent,-1.98%
O=C(Nc1nnc2n3c(nc(-c4ccc(Cl)cc4)c1-2)SCC3=O)c1ccccc1,SRB,"10 µM, NCI60 single-dose screen",relative to: untreated,cell growth,86%
O=C1NC(c2ccccc2)(c2ccccc2)C(=O)N1Cc1cn(-c2c3ccccc3nc3ccccc23)nn1,NCI60 single-dose screen,10 µM,,growth percentage,31.4%
CCCCN1CCN(c2ccc3[nH]c(-c4ccc5[nH]c(-c6ccc(C(F)(F)F)cc6)nc5c4)nc3c2)CC1,SRB,"10 µM, 48 h",,growth percent,-46.8%
Cc1cc(C)n(C(=S)[S][Au][PH](CCCCCC[PH]([Au][S]C(=S)n2nc(C)cc2C)(c2ccccc2)c2ccccc2)(c2ccccc2)c2ccccc2)n1,"cell growth, NCI-60 screen",leukaemia,,log TGI,-6.28 log10 M
NNc1nc(-c2ccc(Cl)cc2)c2c(NC(=O)c3ccccc3)nnc-2[nH]1,SRB,"10 µM, NCI60 single-dose screen",relative to: untreated,cell growth,90.9%
O=c1ccn(Cc2cn(-c3cc4ccccc4oc3=O)nn2)c(=O)[nH]1,NCI60 single-dose screen,10 µM,,growth percentage,114%
Cc1cc(-c2ccccc2)n(-c2nc(-c3ccc(Cl)cc3)c3c(NC(=O)c4ccccc4)nnc-3[nH]2)n1,SRB,"10 µM, NCI60 single-dose screen",relative to: untreated,cell growth,94.1%
CN1CCN(c2ccc3[nH]c(-c4ccc5[nH]c(-c6ccc(C(F)(F)F)cc6)nc5c4)nc3c2)CC1,SRB,"10 µM, 48 h",,growth percent,-18.5%
CCCC(CCC)C(=O)OCc1cn(-c2c3ccccc3nc3ccccc23)nn1,NCI60 single-dose screen,10 µM,,growth percentage,80.6%

# Repeated from above:
SMILES,assay,conditions,scale,quantity,value
COc1ccc(OC)c(-c2nc3ccc(-c4nc5ccc(N6CCN(C)CC6)cc5[nH]4)cc3[nH]2)c1,SRB,"10 µM, 48 h",,growth percent,70.5%
S=C([S][Au-][P+](CCCCCC[P+]([Au-][S]C(=S)n1cccn1)(c1ccccc1)c1ccccc1)(c1ccccc1)c1ccccc1)n1cccn1,cell growth,,,GI50,186 nM
